# Results collected from several papers.
# ± marks the error that the study gave.
SMILES,assay,system,setting,how to read,endpoint,value
Cc1cc(Nc2cc3ncccc3c(N[C@@H]3C[C@H]4CC[C@@H](C3)N4CCC#N)n2)n[nH]1,,"Sprague-Dawley rat, female, plasma","oral, 30 mg/kg/day, last day of 4 weeks",,Cmax,4.82 ng/mL
C[N+]1(CC(=O)OC2CCCCCCCCCCC2)CCOCC1.[I-],metabolic stability,"human, liver microsomes","1 µM, pH 7.4",,half-life,< 0.0333 h
C[C@]12CC[C@@H]3c4ccc(O)cc4CC[C@H]3[C@@H]1C[C@@H](O)[C@@H]2O,GC-MS,"breast cancer women on NSAI, serum","vaginal, 0.03 mg daily, 3 h, day 28",,maximum serum concentration,0.0292 ng/mL
CN[C@H](CC(C)C)C(=O)N[C@H]1C(=O)N[C@@H](CC(N)=O)C(=O)N[C@H]2C(=O)N[C@H]3C(=O)N[C@H](C(=O)N[C@H](C(=O)O)c4cc(O)cc(O)c4-c4cc3ccc4O)[C@H](O)c3ccc(c(Cl)c3)Oc3cc2cc(c3O[C@@H]2O[C@H](CO)[C@@H](O)[C@H](O)[C@H]2O[C@H]2C[C@](C)(N)[C@H](O)[C@H](C)O2)Oc2ccc(cc2Cl)[C@H]1O,microdialysis,"pig, Danish Landrace, subcutaneous adipose tissue","intravenous, 1000 mg over 100 min, 450 min dosing interval, added: 2.0 µg/mL MIC",reference: dosing interval,time above MIC,96%
CCCC[C@H](NC(C)=O)C(=O)N[C@H]1CCC(=O)NC[C@@H](C(=O)N[C@@H](Cc2c[nH]c3ccccc23)C(N)=O)NC(=O)[C@H](CCCNC(=N)N)NC(=O)[C@@H](Cc2ccccc2)NC(=O)[C@H](Cc2c[nH]cn2)NC1=O,,"female rat, plasma","subcutaneous, 1 mg/kg/day, multiple doses, once daily",,AUC(0-inf),829 ng·h/mL
C[C@](N)(Cc1ccc(O)c(O)c1)C(=O)O,static gravimetric method,"supercritical CO2, 740.3 kg/m3","5 h, 333 K, pressure 21 MPa",,solubility,250 µg/mL
Cn1c(-c2ccc(C(N)=O)cc2F)nnc1C(C)(C)Oc1c(F)cc(Cl)cc1F,,"healthy young Japanese subjects, plasma","oral, 10 mg once daily, day 18, 14 days dosing",,half-life mean,24.2 h
CC(C)C[C@@H]1NC(=O)[C@H](C)N(C)C(=O)[C@H](Cc2ccccc2)NCc2ccc([nH]2)CNC1=O,,PAMPA,"100 µM, 17 h, pH 6.4",,Papp,9.77 ×10⁻⁶ cm/s
CN1CC[C@@H](NC(=O)Nc2ccc(C#N)cc2)C[C@@H]1c1nc2ccccc2[nH]1,equilibrium dialysis,"human, moderate hepatic impairment, plasma","6 h after dose, arithmetic mean",,unbound fraction,0.08 ± 0.006
COc1ccc(-c2oc3c(OC)c(OC)c(OC)c(OC)c3c(=O)c2OC)cc1OC,,"C57BL/6 mouse, male, small intestine","oral, 1% w/w in diet, 6 weeks, orange peel extract diet",reference: content in orange peel,tissue to peel content ratio,4.29%
CC(C)(/C=C(\C#N)C(=O)N1CCC[C@@H](n2nc(-c3ccc(Oc4ccccc4)cc3F)c3c(N)ncnc32)C1)N1CCN(C2COC2)CC1,,healthy human,"oral, 1200 mg, grade 2",reference: participants,moderate treatment-related TEAEs,25%
CCN(CC)CCNC(=O)c1c(C)[nH]c(/C=C2\C(=O)Nc3ccc(F)cc32)c1C,,"human, plasma","oral, 20 mg/m2, day 21",,maximum trough plasma concentration,62.9 ng/mL
CNCc1ccc(-c2[nH]c3cc(F)cc4c3c2CCNC4=O)cc1,,"human patients, plasma","oral, 160 mg once daily, day 1, single dose, arithmetic mean",,half-life,19.9 h
c1ccc2c(c1)cc1ccc3cccc4ccc2c1c34,,"male ApcMin/+ mice, plasma","oral gavage, 100 µg/kg, added: RVT 45 µg/kg",,mean residence time,2.4 ± 0.01 h
C=CCn1c(=O)c2cnc(Nc3ccc(N4CCN(C)CC4)cc3)nc2n1-c1cccc(C(C)(C)O)n1,,"human glioblastoma patients, brain tumour tissue",,,unbound fraction,0.067 ± 0.013
CCOc1ccc(Cc2cc([C@@H]3S[C@H](CO)[C@@H](O)[C@H](O)[C@H]3O)c(OC)cc2C)cc1,,"Wistar rat, male, kidney","oral, dose not given, 1 h",reference: kidney over plasma concentration,tissue/plasma ratio,94.9 ± 74.3
CCCC[C@@H]1NC(=O)[C@@H](NC(=O)[C@H](CCC(=O)O)NC(=O)CNC(=O)CN2CCN(CC(=O)O)CCN(CC(=O)O)CCN(CC(=O)O)CC2)CCCCNC(=O)C[C@@H](C(N)=O)NC(=O)[C@H](C(C)C)NC(=O)[C@@H]2CCCN2C(=O)[C@H](CCCNC(=N)N)NC(=O)CNC(=O)[C@H](Cc2c[nH]c3ccccc23)NC(=O)[C@H](CCCNC(=N)N)NC(=O)[C@@H](Cc2ccccc2)NC(=O)[C@H](Cc2c[nH]cn2)NC(=O)[C@H](CCC(=O)O)NC1=O [indium-111 labelled],,"C57 mice, B16/F10 lung metastatic melanoma, brain","intravenous, 0.037 MBq, 4 h",,tissue uptake,0.01 ± 0.01 %ID/g
COC(=O)C[C@](O)(CCCC(C)(C)O)C(=O)O[C@@H]1C(OC)=C[C@]23CCCN2CCc2cc4c(cc2[C@H]13)OCO4,,"CD1 mouse, brain","oral, 1 mg/kg, 0.5 h, below quantification limit 1.00 ng/mL",,tissue concentration,not detected
CCOc1ccc(NC(=S)N(CCO)Cc2cc3cc(C)cc(C)c3[nH]c2=O)cc1,precipitation,aqueous solution from DMSO stock,,,solubility limit,> 100 µM
O=C(O)[C@H](c1ccccc1Cl)N1CCc2sccc2C1,HPLC-MS/MS,feline EDTA plasma,"48 h, 4 °C, storage stability",,deviation from nominal,-7%
CCCSc1nc(N[C@@H]2C[C@H]2c2ccc(F)c(F)c2)c2nnn([C@@H]3C[C@H](OCCO)[C@@H](O)[C@H]3O)c2n1,,"Wistar Han rat, male, plasma","oral, 60 mg/kg/day, day 1, carcinogenicity study",,AUC,85.5 µM·h
CC(=O)N[C@H](CCNC(=O)c1cc(NC(=O)c2cc(NC(=O)c3cc(NC(=O)c4nccn4C)cn3C)cn2C)cn1C)C(=O)Nc1cn(C)c(C(=O)Nc2cc(C(=O)Nc3cc(C(=O)Nc4cc(C(=O)NCCCN(C)CCCN[14C](=O)c5cccc([14C](=O)O)c5)n(C)c4)n(C)c3)n(C)c2)n1,,"NSG mouse, male, LNCaP xenograft, liver","intraperitoneal, 20 nmol/animal, 7 days",,tissue concentration,0.27 mg/kg
COC(=O)[C@H]1[C@H]2C[C@@H]3c4[nH]c5cc(OC)ccc5c4CCN3C[C@H]2C[C@@H](OC(=O)c2cc(OC)c(OC)c(OC)c2)[C@@H]1OC,turbidimetry,PBS,"2 h, 1% DMSO",,kinetic solubility,19.1 µg/mL
COc1ccc2cc3[n+](cc2c1OC)CCc1cc2c(cc1-3)OCO2,,rat plasma QC sample,"0.5 ng/mL nominal, 24 h, 23 °C, low QC level storage stability",,measured concentration,0.47 ± 0.02 ng/mL
CC[C@H](C)[C@@H]1NC(=O)[C@H](Cc2ccc(O)cc2)NC(=O)[C@@H](N)CSSC[C@@H](C(=O)N2CCC[C@H]2C(=O)N[C@@H](CC(C)C)C(=O)NCC(N)=O)NC(=O)[C@H](CC(N)=O)NC(=O)[C@H](CCC(N)=O)NC1=O,ELISA,"male knockout mice, plasma","nasal, 12 µg",,half-life,0.54 ± 0.152 h
CC(C)C[C@H](NC(=O)[C@H](CC(C)C)NC(=O)[C@@H](Cc1c[nH]c2ccccc12)NC(=O)[C@@H](NC(=O)[C@@H](Cc1csc2ccccc12)NC(=O)[C@@H](N)CCCCN)[C@H](c1ccccc1)c1c[nH]c2ccccc12)C(N)=O,RP-HPLC Jupiter Proteo,,acetonitrile/water TFA gradient,,HPLC retention,61 %B
CN1CC[C@@H](NC(=O)Nc2ccc(C#N)cc2)C[C@@H]1c1nc2ccccc2[nH]1,,healthy human volunteers,"oral tablet vs intravenous, 100 mg oral, 50 mg intravenous",reference: dose-normalised AUC(0-inf) oral over intravenous,absolute oral bioavailability,77.1%
O=C(O)c1cccc(CN2CN(C3CCCCC3)C3(CCN(CCCC(=O)c4ccccc4)CC3)C2=O)c1,,"human healthy adults, plasma","dose not given, 24 h, added: esomeprazole",,subjects below LLOQ,> 50%
CC(C)=CCC[C@](C)(O[C@@H]1O[C@H](CO)[C@@H](O)[C@H](O)[C@H]1O)[C@H]1CC[C@]2(C)[C@@H]1[C@H](O)C[C@@H]1[C@@]3(C)CC[C@H](O)C(C)(C)[C@@H]3[C@@H](O[C@@H]3O[C@H](CO)[C@@H](O)[C@H](O)[C@H]3O[C@@H]3O[C@@H](C)[C@H](O)[C@@H](O)[C@H]3O)C[C@]12C,,"rat, extracted plasma QC samples","1.0 µg/mL, 24 h, 15 °C, autosampler",,post-preparative stability accuracy,92.1 ± 6.5%
Cc1cnc(-c2ccnc(C(C)(C)O)n2)cc1-n1c(C)cc(OCc2ncc(F)cc2F)c(Cl)c1=O,,"human, plasma","oral, other than 30, 50, 100 mg, LLOQ 0.5 ng/mL",,quantifiable plasma duration,48 h
CC(=O)N[C@@H](CCCCN)C(=O)N[C@@H](CCCCN)C(=O)N[C@@H](CCCNC(=N)N)C(=O)N[C@@H](Cc1ccc(O)cc1)C(=O)N[C@@H](CO)C(=O)N[C@@H](CCCNC(=N)N)C(=O)N[C@@]1(C)CCCC=CCCC[C@@](C)(C(=O)N[C@@H](CC(C)C)C(N)=O)NC(=O)[C@H](CC(C)C)NC(=O)[C@H](CC(C)C)NC(=O)[C@H](CCC(N)=O)NC1=O,CD spectroscopy,sodium phosphate buffer,"25 to 100 µM, pH 7.4, 25 °C",,helicity,38%
Nc1ccn([C@@H]2O[C@H](CO)[C@@H](O)C2(F)F)c(=O)n1,,extracted rat plasma,"12.00 ng/mL, 8 h, 10 °C, autosampler stability, low QC",,measured concentration,10.9 ± 1.3 ng/mL
COc1ccc(C[C@@H](C)[C@@H](C)Cc2ccc(OC)c(OC)c2)cc1OC,,human patients,"oral, all dose levels, fed or fasted",,maximum AUC,< 5000 ng·h/mL
COc1ccc(-c2cc(=O)c3c(OC)c(OC)c(OC)c(OC)c3o2)cc1,,"C57BL/6 mouse, male, colon","oral, 1% w/w in diet, 6 weeks, orange peel extract diet",reference: content in orange peel,tissue to peel content ratio,0.121%
Cc1ccc(-c2ncc(Cl)cc2-c2ccc(S(C)(=O)=O)cc2)cn1,,"hip replacement patients, CSF","oral, 120 mg at 0 h and 24 h, subgroup",,AUC(0-48 h),2900 ng·h/mL
C=CC[C@@H]1/C=C(\C)C[C@H](C)C[C@H](OC)[C@H]2O[C@@](O)(C(=O)C(=O)N3CCCC[C@H]3C(=O)O[C@H](/C(C)=C/[C@@H]3CC[C@@H](O)[C@H](OC)C3)[C@H](C)[C@@H](O)CC1=O)[C@H](C)C[C@@H]2OC,shake flask,10% w/v nicotinamide solution,"3 days, 37 °C",,solubility,39.3 ± 1.86 µg/mL
Cc1nc2cccc(OCC(C)(C)C(=O)NC(C)C)c2c(N)c1C(=O)O,,"female Sprague-Dawley rat, plasma","oral, 100 mg/kg",,AUC(0-t),279 ng·h/mL
CC(C)=CCC[C@](C)(O[C@@H]1O[C@H](CO)[C@@H](O)[C@H](O)[C@H]1O)[C@H]1CC[C@]2(C)[C@@H]1[C@H](O)C[C@@H]1[C@@]3(C)CC[C@H](O)C(C)(C)[C@@H]3[C@@H](O[C@@H]3O[C@H](CO)[C@@H](O)[C@H](O)[C@H]3O)C[C@]12C,,"rat, extracted tissue homogenate QC samples","0.05 µg/mL, 24 h, 15 °C, autosampler",,post-preparative stability accuracy,95.6 ± 7.5%
CN(C)C(=N)N=C(N)N,,"Sprague-Dawley rat, male, liver","oral, 100 mg/kg, 24 h, single low dose",direction not given,hepatocyte vacuolization score,0
CC#CC(=O)N1CCC[C@H]1c1nc(-c2ccc(C(=O)Nc3ccccn3)cc2)c2c(N)nccn12,,"moderate hepatic impairment (Child-Pugh B), plasma","oral, 50 mg single",reference: healthy subjects,AUC increase,1.3 fold
C#C[C@]1(CO)O[C@@H](n2cnc3c(N)nc(F)nc32)C[C@@H]1O,,"human, plasma","oral, 5 mg, single dose, fasted",,AUC(0-t),0.37 µM·h
Cc1ccc(NC(=O)c2ccc(CN3CCN(C)CC3)cc2)cc1Nc1nccc(-c2cncc(-c3oncc3C)c2)n1,,"Parkinson's disease patients, plasma","oral, 100 mg once daily, day 7, 7-day dosing, mean",,dose-normalised AUC(0-inf),457 ng·h/mL/mg
Cc1cccc(C)c1OCC(=O)N[C@@H](Cc1ccccc1)[C@@H](O)C[C@H](Cc1ccccc1)NC(=O)[C@H](C(C)C)N1CCCNC1=O,modified PAMPA Franz cell,phosphate buffer with HPMCAS,"stock 12 mg/mL, 3 h, 25 °C, 454 nm system, 300 rpm, added: 3% BSA receiver",,free drug permeability,27.9 ± 2.2 ×10⁻⁶ cm/s
CNCc1ccc(-c2[nH]c3cc(F)cc4c3c2CCNC4=O)cc1,,"human cancer patients, plasma","intravenous, 18 mg/m2, day 1, added: temozolomide 200",,clearance,317 mL/min

# Some of these lines once more:
SMILES,assay,system,setting,how to read,endpoint,value
COC(=O)[C@H]1[C@H]2C[C@@H]3c4[nH]c5cc(OC)ccc5c4CCN3C[C@H]2C[C@@H](OC(=O)c2cc(OC)c(OC)c(OC)c2)[C@@H]1OC,turbidimetry,PBS,"2 h, 1% DMSO",,kinetic solubility,19.1 µg/mL
COc1ccc2cc3[n+](cc2c1OC)CCc1cc2c(cc1-3)OCO2,,rat plasma QC sample,"0.5 ng/mL nominal, 24 h, 23 °C, low QC level storage stability",,measured concentration,0.47 ± 0.02 ng/mL
CC[C@H](C)[C@@H]1NC(=O)[C@H](Cc2ccc(O)cc2)NC(=O)[C@@H](N)CSSC[C@@H](C(=O)N2CCC[C@H]2C(=O)N[C@@H](CC(C)C)C(=O)NCC(N)=O)NC(=O)[C@H](CC(N)=O)NC(=O)[C@H](CCC(N)=O)NC1=O,ELISA,"male knockout mice, plasma","nasal, 12 µg",,half-life,0.54 ± 0.152 h
CC(C)C[C@H](NC(=O)[C@H](CC(C)C)NC(=O)[C@@H](Cc1c[nH]c2ccccc12)NC(=O)[C@@H](NC(=O)[C@@H](Cc1csc2ccccc12)NC(=O)[C@@H](N)CCCCN)[C@H](c1ccccc1)c1c[nH]c2ccccc12)C(N)=O,RP-HPLC Jupiter Proteo,,acetonitrile/water TFA gradient,,HPLC retention,61 %B
CN1CC[C@@H](NC(=O)Nc2ccc(C#N)cc2)C[C@@H]1c1nc2ccccc2[nH]1,,healthy human volunteers,"oral tablet vs intravenous, 100 mg oral, 50 mg intravenous",reference: dose-normalised AUC(0-inf) oral over intravenous,absolute oral bioavailability,77.1%
